Assay results of several laboratories.
Compare with care: the assays were run in different laboratories. Values joined by “and” are separate records of one study, mostly repeats; a detail may differ. ± gives the spread as reported.
BCHE: Cholinesterase (BCHE, Homo sapiens, UniProt P06276)
Sequence of UniProt P06276 (whole entry, looked up): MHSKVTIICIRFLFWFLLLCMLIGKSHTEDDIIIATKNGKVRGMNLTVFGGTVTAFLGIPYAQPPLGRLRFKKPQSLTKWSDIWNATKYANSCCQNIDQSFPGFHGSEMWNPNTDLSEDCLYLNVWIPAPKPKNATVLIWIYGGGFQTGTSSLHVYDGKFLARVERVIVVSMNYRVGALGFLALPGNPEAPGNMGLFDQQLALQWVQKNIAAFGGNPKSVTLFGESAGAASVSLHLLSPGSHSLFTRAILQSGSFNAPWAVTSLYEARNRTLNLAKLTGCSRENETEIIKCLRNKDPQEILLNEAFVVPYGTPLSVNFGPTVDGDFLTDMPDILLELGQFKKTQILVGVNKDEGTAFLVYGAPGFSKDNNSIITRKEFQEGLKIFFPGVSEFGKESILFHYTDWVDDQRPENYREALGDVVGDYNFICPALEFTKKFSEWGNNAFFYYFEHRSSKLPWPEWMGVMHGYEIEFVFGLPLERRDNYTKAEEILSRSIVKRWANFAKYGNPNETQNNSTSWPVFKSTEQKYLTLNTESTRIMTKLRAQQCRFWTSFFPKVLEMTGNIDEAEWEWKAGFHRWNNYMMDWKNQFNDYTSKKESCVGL
Abhydrolase domain-containing protein 11: Abhydrolase domain-containing protein 11 (Rattus norvegicus, UniProt D3ZXK4)
Sequence of UniProt O43614 (whole entry, unmodified, looked up): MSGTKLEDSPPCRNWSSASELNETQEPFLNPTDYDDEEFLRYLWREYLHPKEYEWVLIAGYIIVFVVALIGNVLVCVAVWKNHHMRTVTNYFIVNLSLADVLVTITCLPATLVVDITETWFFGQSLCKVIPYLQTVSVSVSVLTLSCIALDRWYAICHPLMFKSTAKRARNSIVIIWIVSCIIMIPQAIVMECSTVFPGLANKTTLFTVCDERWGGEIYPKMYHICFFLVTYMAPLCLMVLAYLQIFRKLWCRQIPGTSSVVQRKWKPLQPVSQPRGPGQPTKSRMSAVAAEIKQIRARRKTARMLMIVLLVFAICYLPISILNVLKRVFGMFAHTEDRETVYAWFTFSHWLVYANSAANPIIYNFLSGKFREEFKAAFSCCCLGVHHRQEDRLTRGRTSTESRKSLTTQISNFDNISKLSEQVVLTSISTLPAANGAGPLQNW
Sequence of UniProt Q12884 (whole entry, looked up): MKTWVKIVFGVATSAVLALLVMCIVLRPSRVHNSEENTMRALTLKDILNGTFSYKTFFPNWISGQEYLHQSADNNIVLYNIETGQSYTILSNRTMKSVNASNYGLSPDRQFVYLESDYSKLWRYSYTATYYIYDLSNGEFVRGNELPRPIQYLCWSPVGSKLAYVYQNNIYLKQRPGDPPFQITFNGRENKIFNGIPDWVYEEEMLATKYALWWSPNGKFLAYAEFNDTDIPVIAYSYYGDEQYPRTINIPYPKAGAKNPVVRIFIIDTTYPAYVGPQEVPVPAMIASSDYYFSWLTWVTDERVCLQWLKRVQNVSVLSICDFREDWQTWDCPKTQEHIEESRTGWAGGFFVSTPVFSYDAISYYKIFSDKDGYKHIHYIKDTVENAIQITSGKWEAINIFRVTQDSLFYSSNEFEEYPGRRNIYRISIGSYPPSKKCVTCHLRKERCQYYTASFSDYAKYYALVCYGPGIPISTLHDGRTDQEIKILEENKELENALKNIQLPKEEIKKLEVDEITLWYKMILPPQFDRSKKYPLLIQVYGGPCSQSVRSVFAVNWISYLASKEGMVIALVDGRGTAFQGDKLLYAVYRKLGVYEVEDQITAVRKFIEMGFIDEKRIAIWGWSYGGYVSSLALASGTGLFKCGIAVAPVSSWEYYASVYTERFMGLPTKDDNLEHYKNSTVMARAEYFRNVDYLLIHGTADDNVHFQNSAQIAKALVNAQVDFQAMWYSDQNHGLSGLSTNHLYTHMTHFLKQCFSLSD
Sequence of UniProt Q9C0E2 (whole entry, looked up): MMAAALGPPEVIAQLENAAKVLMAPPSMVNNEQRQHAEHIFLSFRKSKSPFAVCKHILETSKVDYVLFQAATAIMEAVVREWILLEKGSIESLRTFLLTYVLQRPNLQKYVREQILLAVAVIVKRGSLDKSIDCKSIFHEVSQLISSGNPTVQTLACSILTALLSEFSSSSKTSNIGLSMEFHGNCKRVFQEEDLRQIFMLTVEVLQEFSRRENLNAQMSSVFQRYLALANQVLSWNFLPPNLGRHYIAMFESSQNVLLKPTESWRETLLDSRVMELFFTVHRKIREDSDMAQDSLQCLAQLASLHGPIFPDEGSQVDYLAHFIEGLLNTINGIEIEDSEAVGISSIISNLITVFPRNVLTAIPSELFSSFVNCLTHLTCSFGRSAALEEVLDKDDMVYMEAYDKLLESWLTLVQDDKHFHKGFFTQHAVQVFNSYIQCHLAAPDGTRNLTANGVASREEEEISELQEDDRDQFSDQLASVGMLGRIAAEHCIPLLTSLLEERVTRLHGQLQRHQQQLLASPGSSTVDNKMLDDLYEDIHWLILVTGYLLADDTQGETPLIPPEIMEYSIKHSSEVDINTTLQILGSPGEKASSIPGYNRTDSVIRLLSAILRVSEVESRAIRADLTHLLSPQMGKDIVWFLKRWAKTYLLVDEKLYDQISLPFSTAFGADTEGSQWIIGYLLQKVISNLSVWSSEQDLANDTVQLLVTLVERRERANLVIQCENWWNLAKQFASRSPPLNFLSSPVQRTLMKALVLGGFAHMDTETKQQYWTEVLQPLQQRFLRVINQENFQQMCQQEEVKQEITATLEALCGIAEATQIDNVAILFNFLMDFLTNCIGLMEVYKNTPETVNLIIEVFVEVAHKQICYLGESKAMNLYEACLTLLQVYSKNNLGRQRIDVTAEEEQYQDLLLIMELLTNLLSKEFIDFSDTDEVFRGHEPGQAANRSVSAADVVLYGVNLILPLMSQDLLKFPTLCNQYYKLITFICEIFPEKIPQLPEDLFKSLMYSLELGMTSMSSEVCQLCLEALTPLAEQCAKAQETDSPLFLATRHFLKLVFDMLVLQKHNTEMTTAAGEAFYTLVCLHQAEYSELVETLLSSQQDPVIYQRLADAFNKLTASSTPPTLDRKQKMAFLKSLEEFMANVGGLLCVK
Sequence of UniProt P35367 (whole entry, looked up): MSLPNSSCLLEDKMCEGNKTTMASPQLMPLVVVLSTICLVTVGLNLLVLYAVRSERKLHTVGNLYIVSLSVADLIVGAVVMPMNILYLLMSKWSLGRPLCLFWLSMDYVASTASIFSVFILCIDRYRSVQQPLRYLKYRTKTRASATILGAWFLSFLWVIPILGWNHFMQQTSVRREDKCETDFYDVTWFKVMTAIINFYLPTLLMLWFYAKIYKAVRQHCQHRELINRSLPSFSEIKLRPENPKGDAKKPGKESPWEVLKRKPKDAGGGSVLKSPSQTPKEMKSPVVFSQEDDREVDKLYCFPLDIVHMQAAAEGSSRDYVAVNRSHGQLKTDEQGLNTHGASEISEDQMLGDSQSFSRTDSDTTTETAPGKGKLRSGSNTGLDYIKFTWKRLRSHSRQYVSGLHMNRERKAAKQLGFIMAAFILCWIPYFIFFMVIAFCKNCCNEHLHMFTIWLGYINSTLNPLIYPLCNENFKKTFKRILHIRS
Sequence of UniProt Q02156 (whole entry, looked up): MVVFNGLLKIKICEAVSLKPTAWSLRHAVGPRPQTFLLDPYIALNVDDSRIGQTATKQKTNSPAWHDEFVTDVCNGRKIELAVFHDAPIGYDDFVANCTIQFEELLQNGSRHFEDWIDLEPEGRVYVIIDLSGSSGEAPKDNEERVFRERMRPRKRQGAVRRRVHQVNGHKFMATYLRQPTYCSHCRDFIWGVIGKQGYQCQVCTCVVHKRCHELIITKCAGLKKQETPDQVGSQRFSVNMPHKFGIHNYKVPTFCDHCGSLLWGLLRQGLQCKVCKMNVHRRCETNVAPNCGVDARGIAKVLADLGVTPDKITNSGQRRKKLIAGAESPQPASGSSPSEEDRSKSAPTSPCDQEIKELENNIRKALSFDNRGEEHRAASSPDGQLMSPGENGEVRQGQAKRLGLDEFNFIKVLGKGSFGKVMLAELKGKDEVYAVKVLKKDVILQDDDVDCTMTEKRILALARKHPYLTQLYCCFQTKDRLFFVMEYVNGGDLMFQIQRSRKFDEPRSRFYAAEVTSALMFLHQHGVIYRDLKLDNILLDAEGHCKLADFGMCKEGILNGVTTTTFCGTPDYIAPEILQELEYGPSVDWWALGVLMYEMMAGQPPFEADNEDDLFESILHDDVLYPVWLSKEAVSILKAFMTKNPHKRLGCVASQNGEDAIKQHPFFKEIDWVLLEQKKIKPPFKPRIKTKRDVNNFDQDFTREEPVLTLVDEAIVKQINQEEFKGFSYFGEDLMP
Sequence of UniProt P46089 (whole entry, looked up): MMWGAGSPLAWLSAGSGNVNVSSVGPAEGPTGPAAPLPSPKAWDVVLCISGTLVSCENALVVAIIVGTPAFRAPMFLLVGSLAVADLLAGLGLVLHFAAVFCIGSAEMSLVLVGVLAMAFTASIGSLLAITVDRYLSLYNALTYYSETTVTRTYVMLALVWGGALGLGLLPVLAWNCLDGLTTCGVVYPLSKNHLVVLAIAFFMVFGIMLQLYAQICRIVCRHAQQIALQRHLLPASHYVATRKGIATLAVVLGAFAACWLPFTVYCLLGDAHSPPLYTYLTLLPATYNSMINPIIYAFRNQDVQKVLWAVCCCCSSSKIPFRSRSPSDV
Sequence of UniProt P14416 (whole entry, looked up): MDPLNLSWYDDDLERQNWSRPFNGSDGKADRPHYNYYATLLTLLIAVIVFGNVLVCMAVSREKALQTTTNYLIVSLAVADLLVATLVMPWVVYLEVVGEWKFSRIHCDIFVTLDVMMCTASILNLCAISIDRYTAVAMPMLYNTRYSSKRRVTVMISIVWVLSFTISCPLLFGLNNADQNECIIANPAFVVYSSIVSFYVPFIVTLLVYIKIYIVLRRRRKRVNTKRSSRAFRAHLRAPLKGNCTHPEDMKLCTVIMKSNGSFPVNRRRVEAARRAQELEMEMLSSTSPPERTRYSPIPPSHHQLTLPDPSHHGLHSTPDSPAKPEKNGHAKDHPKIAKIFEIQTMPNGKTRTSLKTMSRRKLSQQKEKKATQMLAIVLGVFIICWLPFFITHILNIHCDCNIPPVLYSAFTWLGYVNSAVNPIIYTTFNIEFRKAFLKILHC

Structure (SMILES) | tested on | assay | system | conditions | scale | quantity | result
CC(C)C[C@H](NC(=O)[C@H](CCC(N)=O)NC(=O)[C@H](CO)NC(=O)[C@H](CO)NC(=O)[C@H](CCCNC(=N)N)NC(=O)[C@H](CCCNC(=N)N)NC(=O)[C@H](CCCNC(=N)N)NC(=O)[C@H](CC(C)C)NC(=O)[C@H](Cc1c[nH]cn1)NC(=O)[C@@H](NC(=O)[C@H](CCCCN)NC(=O)[C@H](CCCNC(=N)N)NC(=O)[C@H](CCCNC(=N)N)NC(=O)[C@H](CCCNC(=N)N)NC(=O)[C@H](CCC(N)=O)NC(=O)[C@H](CCCNC(=N)N)NC(=O)[C@H](CCCNC(=N)N)NC(=O)[C@H](CCCCN)NC(=O)[C@H](CCCCN)NC(=O)[C@H](CCCNC(=N)N)NC(=O)CNC(=O)[C@@H](N)Cc1ccc(O)cc1)[C@@H](C)O)C(=O)N[C@@H](CCCCN)C(N)=O | rat CA1 pyramidal neurons | GABAA receptor-mediated mIPSCs | – | concentration not given | – | mIPSC amplitude | increased
CC[C@H](C)[C@@H]1NC(=O)[C@@H]2CCCN2C(=O)[C@H](CC(C)C)NC(=O)[C@H](CC(C)C)NC(=O)CNC(=O)[C@@H](NC(=O)[C@@H](NC(=O)[C@H](CC(=O)O)NC(=O)CNC(=O)[C@@H](NC(=O)[C@H](C)NC(=O)CNC(=O)[C@H](CCCCN)NC(=O)[C@H](CC(C)C)NC(=O)[C@H](CC(C)C)NC(=O)[C@H](CCCCN)NC(=O)CNC(=O)[C@@H](NC(=O)[C@@H](N)CC(C)C)C(C)C)C(C)C)C(C)C)CSSC[C@@H](C(=O)O)NC1=O | – | RNA-seq, refers to: Col3a1 | mouse, traumatic brain injury model, frontal cortex and hippocampus | dose not given | baseline: TBI alone | log2 fold change | -2.33
C[C@H]1CN(c2n[nH]c3nc(N[C@H]4CC[C@H](NS(=O)(=O)CCC(F)(F)F)CC4)ncc23)CCO1 | Exportin-4 (Homo sapiens, UniProt Q9C0E2) | Kinobeads competition, refers to: XPO4 | – | 0.8 µM, unit not given | baseline: vehicle | remaining binding | 1.26
Oc1ccc2c3c1O[C@H]1[C@@H](O)CC[C@@]4(O)[C@@H](C2)N(CC2CCC2)CC[C@]314 | G-protein coupled receptor 3 (GPR3, Homo sapiens, UniProt P46089) | β-arrestin recruitment, TANGO luminescence | – | concentration not given | baseline: basal luminescence | log2 fold change | -0.114
CN1CCN(c2cc(-c3ccncc3)c(-c3ccc4ccccc4c3)nn2)CC1 | Histamine H1 receptor (HRH1, Homo sapiens, UniProt P35367) | agonist, FLIPR | – | 12.5 µM | – | activation | -0.1%
Cc1cccc(S(=O)(=O)N2CCC[C@@H]2CCN2CCC(C)CC2)c1.Cl | BCHE | – | – | concentration not given, Triton | – | efficacy | -81.1 ± 6.25%
COc1ccc(CCN(C)CCCC(C#N)(c2ccc(OC)c(OC)c2)C(C)C)cc1OC (stereo not shown) | Plasmodium falciparum | – | HB3 | – | – | IC50 | 2510 nM
O=C(Nc1cccnn1)N1CCC(=Cc2cccc(Oc3ccc(C(F)(F)F)cn3)c2)CC1 | Abhydrolase domain-containing protein 11 | probe labelling, inhibitor, competitive ABPP with azido-FP probe, refers to: Abhd11 | rat brain soluble fraction | 0.1 µM | – | inhibition | 73%
CO[C@H]1C[C@@H]2CC[C@@H](C)[C@@](O)(O2)C(=O)C(=O)N2CCCC[C@H]2C(=O)O[C@H]([C@H](C)C[C@@H]2CC[C@@H](OC(=O)NCCOCCOCCOCCOCCOCCOCCOCCOCCC(=O)N3CCc4cc(Cn5nc(-c6ccc7oc(N)nc7c6)c6c(N)ncnc65)ccc4C3)[C@H](OC)C2)C[C@@H](O)[C@H](C)/C=C(\C)[C@@H](O)[C@@H](OC)C(=O)[C@H](C)C[C@H](C)/C=C/C=C/C=C/1C | – | phase 1 dose escalation | advanced solid tumour patients | intravenous, 16 mg weekly, grade ≥3 | – | any TRAE incidence | 75%
O=C(O)C[C@H](NC(=O)[C@H](CC(=O)O)NC(=O)[C@H](CC(=O)O)NC(=O)[C@H](CC(=O)O)NC(=O)[C@H](CC(=O)O)NC(=O)[C@H](CC(=O)O)NC(=O)[C@H](CC(=O)O)NC(=O)[C@H](CC(=O)O)NC(=O)[C@H](CC(=O)O)NC(=O)[C@H](CC(=O)O)NC(=O)[C@H](CC(=O)O)NC(=O)[C@H](CCCCNC(=O)c1ccc(C(=O)NCCOCCOB2BBBBBB3BBBB3B2)cc1)NC(=O)CN1CCN(CC(=O)O)CCN(CC(=O)O)CCN(CC(=O)O)CC1)C(=O)O [gallium-67 labelled] | – | gamma counting | ddY mouse, male, 6 weeks old, muscle | intravenous, 37 kBq, 10 min | – | tissue uptake | 1.57 %ID/g
COc1cc(Nc2ncc(F)c(Nc3ccc4c(n3)NC(=O)C(C)(C)O4)n2)cc(OC)c1OC | Muscarinic acetylcholine receptor M4 (CHRM4, Homo sapiens, UniProt P08173) | – | – | – | – | IC50 | > 10000 nM
Cc1c(NC(=O)c2cc3c(s2)CCCC3)cccc1-c1cn(C)c(=O)c(Nc2ccc(C3C(=O)N(C)CCN3C)cc2)n1 (racemic) | BCHE | – | – | concentration not given, Triton | – | efficacy | -59.4 ± 4.22%
O=C(c1ccc(Cl)cc1)N1CCN2C(=O)N(OC(=O)N3CCOc4ccccc43)C(=O)C2C1 (stereo not shown) | Prolyl endopeptidase FAP (FAP, Homo sapiens, UniProt Q12884) | MS-based ABPP | SW-620 conditioned medium | 10 µM, 1 h, 37 °C | baseline: compound over DMSO, lower = more inhibition | peptide ratio | 1.14 and 0.77
COC1=CC(=O)c2c(O)c3c(c(O)c2C1=O)O[C@]1(Oc2c(cc4cc(C)oc(=O)c4c2O)[C@@H](O)[C@@H]1O)[C@@H]3O | Staphylococcus aureus | RNA-Seq, refers to: hrtA | MRSA ATCC 433000 | MIC, 12 h | baseline: untreated | log2 fold change | -2.76
C[C@@H](O)[C@@H](CO)NC(=O)[C@@H](CCCNC(=N)N)NC(=O)[C@@H]1CCCN1C(=O)[C@@H]1CSSC[C@H](NC(=O)[C@H](Cc2ccccc2)NC(=O)CN2CCN(CC(=O)O)CCN(CC(=O)O)CCN(CC(=O)O)CC2)C(=O)N[C@@H](Cc2ccc(O)cc2)C(=O)N[C@@H](Cc2ccccc2)C(=O)N[C@@H](CCC(N)=O)C(=O)N[C@@H](CC(N)=O)C(=O)N1 [gallium-68 labelled] | – | – | Wistar rat, healthy, Pituitary gland | intravenous, 8 MBq, 30 min | – | tissue uptake | 0.54 %ID/g
O=c1nc(-c2ccccn2)sc2ccccc12 | BCHE | – | – | concentration not given, Triton | – | efficacy | -98.1 ± 6.19%
O=C(Nc1cnccc1Cl)N1CCN(Cc2ccc3c(c2)OC(F)(F)O3)CC1 | glycine transporter, rat | binding | – | 10 µM, added: [3H]glycine | – | inhibition | -8%
CC(C)(C)C1CCN(C(=O)n2ncc(C(O)(c3ccccc3)c3ccccc3)n2)CC1 | BCHE | – | – | concentration not given, Triton | – | efficacy | -67.9 ± 16.2%
CC[C@H](C)[C@H](NC(=O)CNC(=O)[C@@H](N)CCCCN)C(=O)N[C@@H](CC(C)C)C(=O)N[C@@H](CCCCN)C(=O)N[C@@H](CCCNC(=N)N)C(=O)N[C@@H](CCC(=O)O)C(=O)N[C@@H](CCCCN)C(=O)N[C@@H](CCCNC(=N)N)C(=O)N[C@@H](CC(C)C)C(=O)N[C@@H](CCCNC(=N)N)C(=O)N[C@@H](CCCNC(=N)N)C(=O)N[C@@H](CCCCN)C(=O)N[C@@H](CC(N)=O)C(=O)N[C@H](C(=O)N[C@@H](Cc1c[nH]cn1)C(=O)N[C@@H](Cc1c[nH]c2ccccc12)C(=O)N1CCC[C@H]1C(=O)N[C@@H](CCC(=O)O)C(=O)N[C@@H](CCC(=O)O)C(=O)NCC(=O)N[C@@H](CCCCN)C(=O)N[C@@H](CC(C)C)C(=O)N[C@@H](CCCNC(=N)N)C(=O)N[C@@H](CCC(=O)O)C(=O)N[C@@H](Cc1ccc(O)cc1)C(=O)N[C@@H](Cc1ccccc1)C(=O)N[C@@H](Cc1ccc(O)cc1)C(=O)N[C@@H](Cc1ccccc1)C(=O)N[C@@H](CCC(=O)O)C(=O)N[C@@H](CC(C)C)C(=O)N[C@@H](CC(=O)O)C(=O)N[C@@H](CCC(=O)O)C(=O)N[C@@H](C)C(=O)N[C@@H](CCC(=O)O)C(=O)N[C@@H](CCCNC(=N)N)C(=O)N[C@H](C(=O)N[C@@H](CC(N)=O)C(=O)N[C@H](C(=O)O)C(C)C)C(C)C)C(C)C | HeLa and HEK-293T cells | phosphatase bead binding, competitive inhibitor, PIB pulldown iBAQ LC-MS/MS, refers to: PPP6R2 | – | concentration not given | baseline: untreated control | log2 fold change | 0.07
Cc1ccc(-n2nccn2)c(C(=O)N2CCN(c3nc4cc(Cl)ccc4o3)CC[C@H]2C)c1 | Orexin receptor type 2 (HCRTR2, Homo sapiens, UniProt O43614, del254-292/I293E/K294R/L160H/M161K/Q254E) | fluorescence sensor response, fluorescence | – | concentration not given, added: OXA | – | normalised fluorescence response | 0.235 and -0.289 and -0.33 and -0.187 and -0.138 and -0.0669
CN(C(=O)n1cnc(-c2ccc[n+]([O-])c2)c1)C1CCCCC1 | Abhydrolase domain-containing protein 11 | probe labelling, inhibitor, competitive ABPP with azido-FP probe, refers to: Abhd11 | rat brain membrane fraction | 100 µM | – | inhibition | 26.7%
Nc1c2c(nc3ccccc13)CCCC2O.O=C(O)/C=C\C(=O)O (stereo not shown) | BCHE | – | – | concentration not given, Triton | – | efficacy | -85.9 ± 5.17%
COc1cc2c(Oc3ccc4[nH]c(C)cc4c3F)ccnc2cc1OCC1(N)CC1 | – | – | paediatric recurrent refractory sarcoma | 10 mg | – | grade 1 or 2 TBIL elevation | 0%
CN[C@]1(c2ccccc2Cl)CCCCC1=O | D(2) dopamine receptor (DRD2, Homo sapiens, UniProt P14416) | radioligand binding, antagonist, radioligand displacement | – | 30 µM, long isoform | – | inhibition | 5%
COc1ccc(N2C(=O)N(c3c(C)cccc3Cl)Cc3cnc(Nc4ccc(C5CCN(C)CC5)cc4OC)nc32)nc1 | Protein kinase C epsilon type (PRKCE, Homo sapiens, UniProt Q02156) | kinase activity, inhibitor | – | 0.5 µM, kinase PKC-EPSILON | – | inhibition | 1.54%
Cl.c1ccc2sc(C3(N4CCCCC4)CCCCC3)cc2c1 | BCHE | – | – | concentration not given, Triton | – | efficacy | -103 ± 11.8%
NC(=NCc1ccccc1)NC(=O)c1nc(Cl)c(N)nc1N | Plasmodium falciparum | – | HB3 | – | – | IC50 | 1000 nM
CC[C@H](C)[C@H](NC(=O)[C@H](Cc1ccccc1)NC(=O)[C@H](CCC(=O)O)NC(=O)[C@H](CCCNC(=N)N)NC(=O)[C@H](C)NC(=O)[C@H](C)NC(=O)[C@H](CCC(N)=O)NC(=O)[C@H](CCC(=O)O)NC(=O)[C@H](CCC(=O)O)NC(=O)[C@H](CC(C)C)NC(=O)[C@H](Cc1ccc(O)cc1)NC(=O)[C@H](CO)NC(=O)[C@H](CO)NC(=O)[C@@H](NC(=O)[C@H](CC(=O)O)NC(=O)[C@H](CO)NC(=O)[C@@H](NC(=O)[C@H](Cc1ccccc1)NC(=O)[C@@H](NC(=O)CNC(=O)[C@H](CCC(=O)O)NC(=O)[C@H](C)NC(=O)CCc1c[nH]cn1)[C@@H](C)O)[C@@H](C)O)C(C)C)C(=O)N[C@@H](C)C(=O)N[C@@H](Cc1c[nH]c2ccccc12)C(=O)N[C@@H](CC(C)C)C(=O)N[C@H](C(=O)N[C@@H](CCCNC(=N)N)C(=O)NCC(=O)N[C@@H](CCCNC(=N)N)C(=O)N[C@@H](CCCCNC(=O)COCCOCCNC(=O)COCCOCCNC(=O)CC[C@H](NC(=O)CCCCCCCCCCCCCCCCC(=O)O)C(=O)O)C(=O)NCC(=O)NCC(=O)N[C@@H](CO)C(=O)N[C@@H](CCCCNc1c(NCCCCCN(O)C(=O)CCC(=O)NCCCCCN(O)C(=O)CCC(=O)NCCCCCN(O)C(C)=O)c(=O)c1=O)C(=O)O)C(C)C [zirconium-89 labelled] | – | gamma counting | rat, skin of neck | intravenous, 3 nmol/kg, 72 h | – | tissue uptake | 0.18 %ID/g

For quick reference, copied from above:
Structure (SMILES) | tested on | assay | system | conditions | scale | quantity | result
Oc1ccc2c3c1O[C@H]1[C@@H](O)CC[C@@]4(O)[C@@H](C2)N(CC2CCC2)CC[C@]314 | G-protein coupled receptor 3 (GPR3, Homo sapiens, UniProt P46089) | β-arrestin recruitment, TANGO luminescence | – | concentration not given | baseline: basal luminescence | log2 fold change | -0.114
Cc1ccc(-n2nccn2)c(C(=O)N2CCN(c3nc4cc(Cl)ccc4o3)CC[C@H]2C)c1 | Orexin receptor type 2 (HCRTR2, Homo sapiens, UniProt O43614, del254-292/I293E/K294R/L160H/M161K/Q254E) | fluorescence sensor response, fluorescence | – | concentration not given, added: OXA | – | normalised fluorescence response | 0.235 and -0.289 and -0.33 and -0.187 and -0.138 and -0.0669
O=C(Nc1cnccc1Cl)N1CCN(Cc2ccc3c(c2)OC(F)(F)O3)CC1 | glycine transporter, rat | binding | – | 10 µM, added: [3H]glycine | – | inhibition | -8%
